# Published values of several laboratories.
# Lines come from different studies, so protocols differ. Values joined by “and” are separate records of one study, mostly repeats; a detail may differ. ± marks the error that the study gave.
# Oprm1: Mu-type opioid receptor (Oprm1, Mus musculus, UniProt P42866)
# putA PRODH domain: putA, PRODH domain (Escherichia coli, UniProt P09546)
# Sequence of UniProt P09546 (whole entry, looked up): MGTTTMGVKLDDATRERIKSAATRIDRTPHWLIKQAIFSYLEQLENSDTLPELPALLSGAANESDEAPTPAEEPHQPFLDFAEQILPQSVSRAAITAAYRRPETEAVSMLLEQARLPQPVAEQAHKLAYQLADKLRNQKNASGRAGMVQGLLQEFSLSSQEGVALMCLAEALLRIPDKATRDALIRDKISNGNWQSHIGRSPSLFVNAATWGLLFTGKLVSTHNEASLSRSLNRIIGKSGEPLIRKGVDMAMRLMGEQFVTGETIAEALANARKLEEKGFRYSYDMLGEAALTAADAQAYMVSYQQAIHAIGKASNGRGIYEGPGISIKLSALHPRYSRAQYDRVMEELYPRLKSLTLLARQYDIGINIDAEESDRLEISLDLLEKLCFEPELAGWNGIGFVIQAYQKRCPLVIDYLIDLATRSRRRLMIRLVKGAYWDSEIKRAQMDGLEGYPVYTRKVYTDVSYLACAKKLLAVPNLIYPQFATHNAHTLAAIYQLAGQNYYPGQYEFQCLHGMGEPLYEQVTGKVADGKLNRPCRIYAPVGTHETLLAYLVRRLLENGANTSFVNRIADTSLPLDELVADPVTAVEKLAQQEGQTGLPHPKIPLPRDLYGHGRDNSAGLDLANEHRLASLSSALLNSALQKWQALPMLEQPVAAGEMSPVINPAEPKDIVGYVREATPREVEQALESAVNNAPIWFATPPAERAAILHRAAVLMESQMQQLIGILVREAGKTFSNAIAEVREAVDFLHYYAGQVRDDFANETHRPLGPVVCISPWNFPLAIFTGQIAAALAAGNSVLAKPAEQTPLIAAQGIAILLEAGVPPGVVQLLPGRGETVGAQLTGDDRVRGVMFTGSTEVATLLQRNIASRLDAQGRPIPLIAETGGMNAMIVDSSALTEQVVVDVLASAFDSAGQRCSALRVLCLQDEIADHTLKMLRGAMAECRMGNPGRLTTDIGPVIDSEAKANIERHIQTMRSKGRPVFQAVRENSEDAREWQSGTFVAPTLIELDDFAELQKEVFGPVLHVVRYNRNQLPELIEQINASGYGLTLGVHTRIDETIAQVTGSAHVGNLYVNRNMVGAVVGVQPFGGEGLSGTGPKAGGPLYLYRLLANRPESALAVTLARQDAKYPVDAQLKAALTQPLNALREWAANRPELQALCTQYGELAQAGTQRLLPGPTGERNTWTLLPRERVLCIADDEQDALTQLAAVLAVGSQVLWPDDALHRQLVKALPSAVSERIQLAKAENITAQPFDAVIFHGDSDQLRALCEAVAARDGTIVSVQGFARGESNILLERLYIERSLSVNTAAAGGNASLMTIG
# Sigma-2 receptor/TMEM97: Sigma-2 receptor/TMEM97 (Cavia porcellus, UniProt H0V073)
# OPRM1: Mu-type opioid receptor (OPRM1, Homo sapiens, UniProt P35372)
# Sequence of UniProt P35372 (whole entry, looked up): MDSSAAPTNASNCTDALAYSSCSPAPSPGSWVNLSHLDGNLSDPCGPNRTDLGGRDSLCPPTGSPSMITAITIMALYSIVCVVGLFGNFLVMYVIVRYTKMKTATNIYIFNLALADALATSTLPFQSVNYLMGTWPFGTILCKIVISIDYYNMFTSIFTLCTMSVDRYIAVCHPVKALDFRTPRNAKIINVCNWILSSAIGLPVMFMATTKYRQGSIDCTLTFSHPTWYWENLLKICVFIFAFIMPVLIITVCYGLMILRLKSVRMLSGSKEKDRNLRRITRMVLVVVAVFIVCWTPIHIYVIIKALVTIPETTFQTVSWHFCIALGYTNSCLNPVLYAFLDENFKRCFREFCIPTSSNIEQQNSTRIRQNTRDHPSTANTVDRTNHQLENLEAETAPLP
# Sequence of UniProt P02730 (whole entry, looked up): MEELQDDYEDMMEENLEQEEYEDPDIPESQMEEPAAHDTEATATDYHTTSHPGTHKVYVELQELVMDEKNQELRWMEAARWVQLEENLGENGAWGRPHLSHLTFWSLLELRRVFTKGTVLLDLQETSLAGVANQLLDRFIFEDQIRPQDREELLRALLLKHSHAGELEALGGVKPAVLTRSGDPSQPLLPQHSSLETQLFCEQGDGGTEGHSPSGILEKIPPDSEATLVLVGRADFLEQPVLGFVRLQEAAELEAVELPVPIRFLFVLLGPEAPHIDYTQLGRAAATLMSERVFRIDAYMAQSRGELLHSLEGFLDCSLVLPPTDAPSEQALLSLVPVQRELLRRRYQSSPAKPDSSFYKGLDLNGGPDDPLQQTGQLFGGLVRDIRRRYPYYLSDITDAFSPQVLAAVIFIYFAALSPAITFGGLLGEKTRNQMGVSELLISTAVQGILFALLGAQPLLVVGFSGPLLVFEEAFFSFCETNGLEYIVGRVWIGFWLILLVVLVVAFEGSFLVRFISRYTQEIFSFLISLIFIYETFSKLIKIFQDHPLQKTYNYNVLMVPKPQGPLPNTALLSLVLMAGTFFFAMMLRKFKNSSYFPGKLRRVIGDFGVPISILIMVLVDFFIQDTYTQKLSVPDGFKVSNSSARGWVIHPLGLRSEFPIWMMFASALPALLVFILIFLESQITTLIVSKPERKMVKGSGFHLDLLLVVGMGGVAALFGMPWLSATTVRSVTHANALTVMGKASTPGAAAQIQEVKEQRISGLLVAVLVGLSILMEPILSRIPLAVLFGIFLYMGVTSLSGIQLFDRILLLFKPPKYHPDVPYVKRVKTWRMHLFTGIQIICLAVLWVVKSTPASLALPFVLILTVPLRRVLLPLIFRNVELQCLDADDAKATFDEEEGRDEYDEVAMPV
# Sequence of UniProt P0A9D4 (whole entry, looked up): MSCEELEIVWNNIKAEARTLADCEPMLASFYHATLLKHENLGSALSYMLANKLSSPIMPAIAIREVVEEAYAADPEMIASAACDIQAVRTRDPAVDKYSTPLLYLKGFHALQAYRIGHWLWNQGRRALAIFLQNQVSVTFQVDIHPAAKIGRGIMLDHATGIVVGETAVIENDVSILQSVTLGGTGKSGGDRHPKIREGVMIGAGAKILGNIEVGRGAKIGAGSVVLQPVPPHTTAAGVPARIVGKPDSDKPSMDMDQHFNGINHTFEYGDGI
# Sequence of UniProt P42229 (whole entry, looked up): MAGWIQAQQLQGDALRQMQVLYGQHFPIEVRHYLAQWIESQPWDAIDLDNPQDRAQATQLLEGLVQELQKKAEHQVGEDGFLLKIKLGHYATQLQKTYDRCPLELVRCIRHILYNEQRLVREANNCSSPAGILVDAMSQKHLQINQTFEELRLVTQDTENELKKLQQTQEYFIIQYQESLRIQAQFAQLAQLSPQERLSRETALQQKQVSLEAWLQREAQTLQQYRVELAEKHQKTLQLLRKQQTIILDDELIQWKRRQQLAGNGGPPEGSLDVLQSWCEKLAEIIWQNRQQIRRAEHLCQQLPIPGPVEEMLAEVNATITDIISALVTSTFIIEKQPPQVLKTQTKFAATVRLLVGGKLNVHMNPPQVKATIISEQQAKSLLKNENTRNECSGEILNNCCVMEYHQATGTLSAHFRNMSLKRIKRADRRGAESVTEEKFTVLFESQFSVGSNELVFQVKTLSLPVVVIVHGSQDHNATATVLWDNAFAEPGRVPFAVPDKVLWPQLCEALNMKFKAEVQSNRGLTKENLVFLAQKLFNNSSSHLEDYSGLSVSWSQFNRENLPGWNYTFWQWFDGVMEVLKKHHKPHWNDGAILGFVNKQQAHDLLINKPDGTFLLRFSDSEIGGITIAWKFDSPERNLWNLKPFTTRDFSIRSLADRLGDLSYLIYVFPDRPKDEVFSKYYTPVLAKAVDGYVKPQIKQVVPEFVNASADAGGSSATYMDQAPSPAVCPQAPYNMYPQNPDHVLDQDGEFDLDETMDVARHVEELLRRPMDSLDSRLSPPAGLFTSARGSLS
# Sequence of UniProt P22756 (whole entry, looked up): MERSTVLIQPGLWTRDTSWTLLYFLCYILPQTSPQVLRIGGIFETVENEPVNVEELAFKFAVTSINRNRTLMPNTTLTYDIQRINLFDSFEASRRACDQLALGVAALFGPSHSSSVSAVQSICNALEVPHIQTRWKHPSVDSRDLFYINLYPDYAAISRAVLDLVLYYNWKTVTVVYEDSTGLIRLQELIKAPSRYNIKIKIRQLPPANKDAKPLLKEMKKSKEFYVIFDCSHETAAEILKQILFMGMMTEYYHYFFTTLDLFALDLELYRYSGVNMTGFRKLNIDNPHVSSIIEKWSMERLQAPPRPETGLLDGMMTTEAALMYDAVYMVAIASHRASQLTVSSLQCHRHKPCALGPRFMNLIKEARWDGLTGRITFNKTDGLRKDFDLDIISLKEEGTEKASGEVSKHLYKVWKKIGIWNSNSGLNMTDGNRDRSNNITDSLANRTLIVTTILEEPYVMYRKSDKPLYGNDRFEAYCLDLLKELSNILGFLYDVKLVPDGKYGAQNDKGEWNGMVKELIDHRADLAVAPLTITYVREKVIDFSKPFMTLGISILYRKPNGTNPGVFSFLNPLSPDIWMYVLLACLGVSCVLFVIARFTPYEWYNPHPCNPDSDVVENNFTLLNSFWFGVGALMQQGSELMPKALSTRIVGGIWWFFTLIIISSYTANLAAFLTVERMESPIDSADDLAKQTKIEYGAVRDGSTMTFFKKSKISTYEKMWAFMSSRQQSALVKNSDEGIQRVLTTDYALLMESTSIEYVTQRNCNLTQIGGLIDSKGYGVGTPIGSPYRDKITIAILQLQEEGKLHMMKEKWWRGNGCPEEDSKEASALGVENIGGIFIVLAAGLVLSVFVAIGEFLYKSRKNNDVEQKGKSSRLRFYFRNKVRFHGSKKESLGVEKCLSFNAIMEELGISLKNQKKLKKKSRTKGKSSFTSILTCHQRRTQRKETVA
# Sequence of UniProt Q15391 (whole entry, looked up): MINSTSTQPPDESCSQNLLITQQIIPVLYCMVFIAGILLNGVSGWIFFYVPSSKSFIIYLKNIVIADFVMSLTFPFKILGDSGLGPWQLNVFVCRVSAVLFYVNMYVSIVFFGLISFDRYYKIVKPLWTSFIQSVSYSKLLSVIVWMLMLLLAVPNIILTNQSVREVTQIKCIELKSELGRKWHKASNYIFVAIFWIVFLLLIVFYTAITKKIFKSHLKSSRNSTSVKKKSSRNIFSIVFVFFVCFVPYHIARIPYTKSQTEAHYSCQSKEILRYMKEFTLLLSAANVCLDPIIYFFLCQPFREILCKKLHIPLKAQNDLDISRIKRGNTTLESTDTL
SMILES,target or system,test,test system,setting,endpoint,value
CCCCC[C@H](O)/C=C/[C@H]1CCC(=O)[C@@H]1C/C=C\CCCC(=O)O,"Prostaglandin E2 receptor EP4 subtype (Ptger4, Rattus norvegicus, UniProt P43114)","ligand displacement, radioligand",,,Ki,0.00042 µM
CCCc1ccc2c(c1)sc(=O)n2CCN1CCCCCC1,"Sigma intracellular receptor 2 (Tmem97, Rattus norvegicus, UniProt Q5U3Y7)",radioligand binding,rat liver membranes,"added: [3H]DTG 5 nM, (+)-pentazocine 300 nM",Ki,0.248 ± 0.015 µM
CCCCCCCC(=O)O[C@H]1/C(=C/C(=O)OC)C[C@H]2C[C@H]([C@@H](C)O)OC(=O)CCCC(=O)OCC(C)(C)[C@]1(O)O2,"Protein kinase C beta type, isoform beta-I (PRKCB, Homo sapiens, UniProt P05771)","binding, radioligand competition",,added: [3H]PDBu,Ki,0.184 µM
O=C(O)CP(=O)(O)O,pyruvate carboxylase Rhizobium etli,noncompetitive inhibitor,,added: MgATP,Ki,2600 ± 300 µM
COP(=O)(O)C(C)=O,"1-deoxy-D-xylulose-5-phosphate synthase (dxs, Escherichia coli, UniProt P77488, H49N)","enzyme activity, inhibitor",,"added: D-GAP 500 µM, pyruvate 2 mM",Ki,167 µM
C[C@@H]1O[C@@H](O[C@H]2C[C@@H](O)[C@]3(CO)[C@H]4[C@H](O)C[C@]5(C)[C@@H](C6=CC(=O)OC6)CC[C@]5(O)[C@@H]4CC[C@]3(O)C2)[C@H](O)[C@H](O)[C@H]1O,"Sodium/potassium-transporting ATPase subunit alpha-1 (ATP1A1, Sus scrofa, UniProt P05024)",enzyme activity,purified pig kidney enzyme,1% DMSO,Ki,0.9 ± 0.06 µM
O=C(/C=C/c1ccoc1)N[C@@H]1CC[C@@]2(O)[C@H]3Cc4ccc(O)c5c4[C@@]2(CCN3CC2CC2)[C@H]1O5,Oprm1,"ligand displacement, radioligand",,,Ki,0.00032 µM
CC[C@H]1O[C@]2(C)[C@H](OC(C)=O)[C@@]1(C)O[C@@H](/C=C/C=C/C=C/c1oc(=O)cc(OC)c1C)[C@@H]2O,"atpD, in F1Fo complex (Escherichia coli, UniProt P0ABB4)",ATP hydrolysis,Escherichia coli everted membranes,free enzyme,Ki,1.1 ± 0.4 µM
CCCCN1C(=O)C(C=CC=CC=C2C(=O)N(c3ccc(S(=O)(=O)O)cc3)N=C2C)C(=O)N(CCCC)C1=O,"SLC4A1 (Homo sapiens, UniProt P02730)","36Cl exchange flux, inhibitor",human erythrocytes,"0 °C, chloride-loaded form at equilibrium",Ki,0.17 to 0.19 µM and 0.166 to 0.185 µM
NC(=O)CCC(N)C(=O)O (stereo in doubt),"anandamide membrane transporter, mouse","[3H]anandamide uptake, non-competitive inhibitor",mouse brain synaptosomes,,Ki,0.48 ± 0.05 µM
O=C(O)[C@@H]1CCO1,putA PRODH domain,competitive inhibitor,,"pH 7.5, room temperature, added: L-proline",Ki,~1500 µM and 1400 µM
Cc1ccc(S(=O)(=O)Nc2cc(C(=O)O)cc([C@H]3CCN[C@@H]3C(=O)O)c2)cc1 (racemic),"Glutamate receptor ionotropic, kainate 1 (Rattus norvegicus, UniProt P22756)","ligand displacement, radioligand",,cell membranes,Ki,19 µM
CONc1ccn([C@@H]2O[C@H](COP(=O)(O)OP(=O)(O)OP(=O)(O)OC[C@H]3O[C@@H](n4ccc(=O)[nH]c4=O)[C@@H](O)[C@H]3O)[C@H](O)[C@@H]2O)c(=O)n1,"P2Y purinoceptor 14 (P2RY14, Homo sapiens, UniProt Q15391)",ligand displacement,,,Ki,5.18 µM
O=C(NC(=S)NCCCc1c[nH]cn1)c1ccccc1,"Histamine H4 receptor (HRH4, Homo sapiens, UniProt Q9H3N8)","ligand displacement, radioligand",,cell membranes,Ki,0.151 µM
O=C(c1ccc(O)cc1)c1c(-c2ccc(O)cc2)sc2cc(O)ccc12,"Estrogen receptor beta (ESR2, Homo sapiens, UniProt Q92731)","ligand displacement, radioligand",,,Ki,0.00147 µM
CCCCCCCCCCCCC/C=C/[C@@H](O)[C@H](CO)N(C)C,"Sigma non-opioid intracellular receptor 1 (SIGMAR1, Cavia porcellus, UniProt Q60492)","ligand displacement, radioligand",,,Ki,0.12 µM
Nc1nc(F)nc2c1ncn2[C@@H]1O[C@H](CO)[C@@H](O)[C@@H]1O,"Adenosine receptor A2a (ADORA2A, Homo sapiens, UniProt P29274)","ligand displacement, radioligand",,cell membranes,Ki,> 100 µM
CC(C)=CCC12OC1(O)C(=O)c1c(O)cccc1C2=O (stereo not shown),"Tyrosyl-DNA phosphodiesterase 1 (TDP1, Homo sapiens, UniProt Q9NUW8)",mixed noncompetitive inhibitor,,enzyme-substrate complex,Ki,9.95 ± 1.14 µM
CN(C(=O)/C=C/c1ccoc1)[C@@H]1CC[C@@]2(O)[C@H]3Cc4cccc5c4[C@@]2(CCN3CC2CC2)[C@H]1O5,Oprm1,"ligand displacement, radioligand",,,Ki,0.123 µM
CCCC[C@H](NC=O)C(=O)N[C@@H](CC(C)C)C(=O)N[C@@H](Cc1ccccc1)C(=O)O,"fMet-Leu-Phe receptor (FPR1, Homo sapiens, UniProt P21462, N192K)","binding, inhibitor",,,Ki,0.062 ± 0.008 µM
CC(=O)P(=O)(O)OCc1ccccc1,porcine pyruvate dehydrogenase,competitive inhibitor,,"30 °C, added: pyruvate",Ki,882 ± 78 µM
NCCCC[C@H](NC(=O)[C@H](Cc1c[nH]c2ccccc12)NC(=O)[C@H](CCCCN)NC(=O)CNC(=O)CCC(=O)N/N=C/c1ccc(/C=N/NC(=O)CCC(=O)NCC(=O)N[C@@H](CCCCN)C(=O)N[C@@H](Cc2c[nH]c3ccccc23)C(=O)N[C@@H](CCCCN)C(N)=O)cc1)C(N)=O,"Tryptase beta-2 (TPSB2, Homo sapiens, UniProt P20231)",non-competitive inhibitor,,,Ki,0.392 ± 0.0244 µM
N[C@@H](CCC(=O)O)C(=O)O,anandamide membrane transporter rat,"[3H]anandamide uptake, non-competitive inhibitor",brain synaptosomes,,Ki,3.3 ± 0.31 µM
CC[C@H](C)CCCCC(=O)N[C@@H](CCN)C(=O)N[C@H](C(=O)N[C@@H](CCN)C(=O)N[C@H]1CCNC(=O)[C@H]([C@@H](C)O)NC(=O)[C@H](CCN)NC(=O)[C@H](CCN)NC(=O)[C@H](CC(C)C)NC(=O)[C@@H](CC(C)C)NC(=O)[C@H](CCN)NC1=O)[C@@H](C)O,lipopolysaccharide,"binding, displacement",Escherichia coli,,Ki,0.8 ± 0.1 µM
O=P(O)(O)Oc1ccccc1OP(=O)(O)O,"Signal transducer and activator of transcription 5A, SH2 (Homo sapiens, UniProt P42229)","ligand displacement, FP",,,Ki,34 µM
O[C@@H]1CNC=Nc2c1ncn2[C@H]1C[C@H](O)[C@@H](CSc2ccccc2)O1,"MTA/SAH deaminase (Pseudomonas aeruginosa, UniProt Q9HZ64)",inhibitor,,"pH 7.4, 25 °C, added: MTA 100 µM",Ki,0.00013 ± 9e-06 µM
O=C(/C=C/c1ccoc1)N[C@H]1CC[C@@]2(O)[C@H]3Cc4cccc5c4[C@@]2(CCN3CC2CC2)[C@H]1O5,"Delta-type opioid receptor (Oprd1, Mus musculus, UniProt P32300)","binding, radioligand displacement",,added: [3H]diprenorphine,Ki,0.0776 ± 0.0059 µM
CN1CCN(CCc2ccc(Cl)c(Cl)c2)CC1,Sigma-2 receptor/TMEM97,binding,guinea pig brain,"sigma-2 site, high-affinity site, added: 3 nM [3H]DTG, (+)-pentazocine",Ki,0.625 µM
CC[C@]1(C(=O)O)C[C@H]1[C@H](N)C(=O)O.Cl,"kainate receptor, rat",[3H]kainate displacement,cortical synaptosomes,,Ki,0.61 µM
CC1(C)Oc2cc(C(=O)N3C4CC5CC3CC(C4)O5)cc(O)c2[C@@H]2C[C@H](O)CC[C@H]21,"Cannabinoid receptor 1 (Cnr1, Rattus norvegicus, UniProt P20272)","[3H]CP-55,940 displacement",rat brain membranes,"added: [3H]CP-55,940",Ki,no binding
CC(C)c1ccc(O)c(=O)c(O)c1,"Gag-Pol polyprotein, reverse transcriptase (gag-pol, Human immunodeficiency virus 1, UniProt P03366)","enzyme activity, inhibitor, FRET",,,Ki,0.14 µM
c1ccc2sc(C3(N4CCCC4)CCCCC3)cc2c1,"Trypanothione reductase (TPR, Trypanosoma brucei brucei, UniProt P39051)","competitive inhibitor, DTNB-coupled",Trypanosoma brucei,"pH 7.4, added: trypanothione disulfide",Ki,0.26 ± 0.01 µM
CCCN(CCC1(O)CC(NS(=O)(=O)c2ccc(F)c(Cl)c2)C1)[C@H]1CCc2nc(N)sc2C1 (stereo in doubt),"dopamine D2-like receptor, rat",radioligand binding,rat striatal membranes,"high-affinity component, added: [3H]spiperone",Ki,2.42 ± 0.118 µM
Nc1nc2c(ncn2[C@H]2C[C@H](O)[C@@H](COP(=O)(O)NP(=O)(O)OP(=O)(O)O)O2)c(=O)[nH]1,"Deoxynucleoside triphosphate triphosphohydrolase SAMHD1 (SAMHD1, Homo sapiens, UniProt Q9Y3Z3)","enzyme activity, inhibitor",,added: dTTP 100 µM,Ki,0.031 ± 0.0023 µM
CCCN(CCC1(O)CC(NS(=O)(=O)c2ccccc2)C1)[C@H]1CCc2nc(N)sc2C1 (stereo in doubt),"D(3) dopamine receptor (Drd3, Rattus norvegicus, UniProt P19020)","ligand displacement, radioligand",,cell membranes,Ki,0.0019 µM
O=[As](O)(O)O,"Triosephosphate isomerase, glycosomal (Trypanosoma brucei brucei, UniProt P04789, I172A)",inhibitor,,"pH 7.5, 25 °C, ionic strength 0.1, added: DHAP substrate",Ki,8600 µM
O=C(O)C1CC1,putA PRODH domain,competitive inhibitor,,"pH 7.5, room temperature, added: L-proline",Ki,3100 ± 300 µM
CN(CCc1ccc(Cl)c(Cl)c1)CCN1CCCC1,Sigma-2 receptor/TMEM97,binding,guinea pig brain,"sigma-2 site, high-affinity site, added: 3 nM [3H]DTG, (+)-pentazocine",Ki,0.0166 µM
C[C@H]1CN(C[C@H]2Cc3ccccc3CN2)CC[C@@]1(C)c1cccc(O)c1,OPRM1,"ligand displacement, radioligand",,,Ki,0.001 µM and 0.00098 µM
N[C@@H](CO)C(=O)O,"cysE (Escherichia coli, UniProt P0A9D4)",,,,Ki,4000 µM and 3700 µM
CN[C@@](C)(C[18F])C(=O)O,A549 tumour model,,"host not given, bone","30 min, tumour-bearing",tracer uptake,2.3 %ID/g
C[C@H]1CN(C[C@H]2Cc3ccc(O)cc3CN2)CC[C@@]1(C)c1cccc(O)c1,OPRM1,"ligand displacement, radioligand",,,Ki,0.03 µM
c1ccc(CCN2CCCCC2)cc1,"beta adrenergic receptor, rat",binding,rat cerebral cortex,added: [3H]dihydroalprenolol 2 nM,Ki,> 10 µM

# Some of these lines once more:
SMILES,target or system,test,test system,setting,endpoint,value
CC(C)=CCC12OC1(O)C(=O)c1c(O)cccc1C2=O (stereo not shown),"Tyrosyl-DNA phosphodiesterase 1 (TDP1, Homo sapiens, UniProt Q9NUW8)",mixed noncompetitive inhibitor,,enzyme-substrate complex,Ki,9.95 ± 1.14 µM
CN(CCc1ccc(Cl)c(Cl)c1)CCN1CCCC1,Sigma-2 receptor/TMEM97,binding,guinea pig brain,"sigma-2 site, high-affinity site, added: 3 nM [3H]DTG, (+)-pentazocine",Ki,0.0166 µM
